Published values collected from several papers.
Compare with care: the assays were run in different laboratories. “And” joins repeats or separate records; there may be more than shown.
HDAC1: Histone deacetylase 1 (HDAC1, Homo sapiens, UniProt Q13547)
PSMB8: Proteasome subunit beta type-8 (PSMB8, Homo sapiens, UniProt P28062)
HIPK1: Homeodomain-interacting protein kinase 1 (HIPK1, Homo sapiens, UniProt Q86Z02)
DRD3: D(3) dopamine receptor (DRD3, Homo sapiens, UniProt P35462)
Chain of UniProt P35462 (whole entry, looked up): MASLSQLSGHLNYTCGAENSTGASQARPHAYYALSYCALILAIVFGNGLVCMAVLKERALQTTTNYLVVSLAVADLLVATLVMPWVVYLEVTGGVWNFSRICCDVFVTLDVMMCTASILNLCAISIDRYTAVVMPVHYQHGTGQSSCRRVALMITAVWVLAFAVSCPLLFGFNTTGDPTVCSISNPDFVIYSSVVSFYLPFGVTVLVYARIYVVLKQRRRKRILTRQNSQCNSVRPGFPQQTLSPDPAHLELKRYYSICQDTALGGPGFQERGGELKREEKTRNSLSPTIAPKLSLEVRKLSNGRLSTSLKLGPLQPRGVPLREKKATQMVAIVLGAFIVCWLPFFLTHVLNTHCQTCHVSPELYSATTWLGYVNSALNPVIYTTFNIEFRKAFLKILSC
HDAC8: Histone deacetylase 8 (HDAC8, Homo sapiens, UniProt Q9BY41)
Chain of UniProt Q9BY41 (whole entry, looked up): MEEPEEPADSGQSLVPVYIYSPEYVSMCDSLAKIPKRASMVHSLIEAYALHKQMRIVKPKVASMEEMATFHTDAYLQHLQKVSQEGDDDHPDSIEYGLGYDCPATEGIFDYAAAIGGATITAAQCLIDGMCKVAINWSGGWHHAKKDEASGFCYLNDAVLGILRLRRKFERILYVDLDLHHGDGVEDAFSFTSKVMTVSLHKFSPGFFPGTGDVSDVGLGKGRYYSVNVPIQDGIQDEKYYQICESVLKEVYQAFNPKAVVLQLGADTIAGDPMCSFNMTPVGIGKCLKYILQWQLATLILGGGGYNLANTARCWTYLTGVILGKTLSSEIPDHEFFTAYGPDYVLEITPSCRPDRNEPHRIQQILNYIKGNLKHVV
SIRT6: NAD-dependent protein deacylase sirtuin-6 (SIRT6, Homo sapiens, UniProt Q8N6T7)
Chain of UniProt Q8N6T7 (whole entry, looked up): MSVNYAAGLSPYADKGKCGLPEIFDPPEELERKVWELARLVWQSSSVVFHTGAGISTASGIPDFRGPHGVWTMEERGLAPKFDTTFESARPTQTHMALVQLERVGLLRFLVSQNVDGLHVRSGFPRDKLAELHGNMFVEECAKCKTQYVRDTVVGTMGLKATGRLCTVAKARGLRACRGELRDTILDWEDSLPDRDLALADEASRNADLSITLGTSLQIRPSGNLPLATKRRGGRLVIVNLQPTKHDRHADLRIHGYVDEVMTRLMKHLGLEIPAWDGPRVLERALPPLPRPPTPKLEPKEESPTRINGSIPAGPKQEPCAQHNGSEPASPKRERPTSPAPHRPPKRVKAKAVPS
CES2: Cocaine esterase (CES2, Homo sapiens, UniProt O00748)
Chain of UniProt O00748 (whole entry, looked up): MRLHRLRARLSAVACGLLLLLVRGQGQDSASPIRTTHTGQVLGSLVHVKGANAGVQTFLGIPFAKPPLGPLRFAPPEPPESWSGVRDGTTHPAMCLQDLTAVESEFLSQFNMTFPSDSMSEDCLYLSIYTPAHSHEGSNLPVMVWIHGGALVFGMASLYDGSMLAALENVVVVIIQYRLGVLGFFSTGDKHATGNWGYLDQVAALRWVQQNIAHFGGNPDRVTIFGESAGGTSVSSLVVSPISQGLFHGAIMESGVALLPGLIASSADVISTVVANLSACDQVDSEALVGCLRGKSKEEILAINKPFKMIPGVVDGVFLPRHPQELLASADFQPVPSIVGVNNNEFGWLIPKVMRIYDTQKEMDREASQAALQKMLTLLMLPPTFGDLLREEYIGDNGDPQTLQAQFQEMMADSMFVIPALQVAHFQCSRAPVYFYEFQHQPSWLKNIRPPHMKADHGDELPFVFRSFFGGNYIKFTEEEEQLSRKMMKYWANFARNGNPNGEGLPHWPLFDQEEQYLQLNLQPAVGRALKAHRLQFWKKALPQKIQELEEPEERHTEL
PIK3CB: Phosphatidylinositol 4,5-bisphosphate 3-kinase catalytic subunit beta isoform (PIK3CB, Homo sapiens, UniProt P42338)
Chain of UniProt P42338 (whole entry, looked up): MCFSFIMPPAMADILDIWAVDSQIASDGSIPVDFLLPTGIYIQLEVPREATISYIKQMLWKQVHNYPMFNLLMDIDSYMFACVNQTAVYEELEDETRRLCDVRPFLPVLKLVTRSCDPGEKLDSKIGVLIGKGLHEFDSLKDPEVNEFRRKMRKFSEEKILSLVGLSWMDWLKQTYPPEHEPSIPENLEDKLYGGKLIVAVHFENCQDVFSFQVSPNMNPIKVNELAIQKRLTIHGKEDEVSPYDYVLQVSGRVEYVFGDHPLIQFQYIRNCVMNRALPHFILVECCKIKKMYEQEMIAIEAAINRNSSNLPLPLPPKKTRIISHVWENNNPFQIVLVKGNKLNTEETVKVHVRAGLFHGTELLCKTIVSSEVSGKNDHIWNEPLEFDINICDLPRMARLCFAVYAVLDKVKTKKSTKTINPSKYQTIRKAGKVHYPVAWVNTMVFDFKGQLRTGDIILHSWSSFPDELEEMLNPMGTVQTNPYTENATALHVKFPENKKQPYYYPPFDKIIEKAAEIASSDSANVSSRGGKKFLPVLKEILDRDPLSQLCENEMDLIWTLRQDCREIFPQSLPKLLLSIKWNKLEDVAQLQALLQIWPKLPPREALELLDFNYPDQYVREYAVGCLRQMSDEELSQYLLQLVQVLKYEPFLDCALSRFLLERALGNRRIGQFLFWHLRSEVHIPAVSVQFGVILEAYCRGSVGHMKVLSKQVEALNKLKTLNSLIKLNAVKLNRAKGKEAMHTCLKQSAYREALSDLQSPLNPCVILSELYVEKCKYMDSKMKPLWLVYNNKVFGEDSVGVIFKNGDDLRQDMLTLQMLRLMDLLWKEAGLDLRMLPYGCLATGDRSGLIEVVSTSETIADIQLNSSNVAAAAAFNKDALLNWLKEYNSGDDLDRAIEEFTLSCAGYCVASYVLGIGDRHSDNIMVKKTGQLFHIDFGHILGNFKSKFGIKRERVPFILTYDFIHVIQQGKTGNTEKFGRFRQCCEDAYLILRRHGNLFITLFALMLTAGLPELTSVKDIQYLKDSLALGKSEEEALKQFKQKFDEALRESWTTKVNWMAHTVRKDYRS
PARP2: Poly [ADP-ribose] polymerase 2 (PARP2, Homo sapiens, UniProt Q9UGN5)
ALOX15: Polyunsaturated fatty acid lipoxygenase ALOX15 (ALOX15, Homo sapiens, UniProt P16050)
PARP10: Protein mono-ADP-ribosyltransferase PARP10 (PARP10, Homo sapiens, UniProt Q53GL7)
Chain of UniProt Q53GL7 (whole entry, looked up): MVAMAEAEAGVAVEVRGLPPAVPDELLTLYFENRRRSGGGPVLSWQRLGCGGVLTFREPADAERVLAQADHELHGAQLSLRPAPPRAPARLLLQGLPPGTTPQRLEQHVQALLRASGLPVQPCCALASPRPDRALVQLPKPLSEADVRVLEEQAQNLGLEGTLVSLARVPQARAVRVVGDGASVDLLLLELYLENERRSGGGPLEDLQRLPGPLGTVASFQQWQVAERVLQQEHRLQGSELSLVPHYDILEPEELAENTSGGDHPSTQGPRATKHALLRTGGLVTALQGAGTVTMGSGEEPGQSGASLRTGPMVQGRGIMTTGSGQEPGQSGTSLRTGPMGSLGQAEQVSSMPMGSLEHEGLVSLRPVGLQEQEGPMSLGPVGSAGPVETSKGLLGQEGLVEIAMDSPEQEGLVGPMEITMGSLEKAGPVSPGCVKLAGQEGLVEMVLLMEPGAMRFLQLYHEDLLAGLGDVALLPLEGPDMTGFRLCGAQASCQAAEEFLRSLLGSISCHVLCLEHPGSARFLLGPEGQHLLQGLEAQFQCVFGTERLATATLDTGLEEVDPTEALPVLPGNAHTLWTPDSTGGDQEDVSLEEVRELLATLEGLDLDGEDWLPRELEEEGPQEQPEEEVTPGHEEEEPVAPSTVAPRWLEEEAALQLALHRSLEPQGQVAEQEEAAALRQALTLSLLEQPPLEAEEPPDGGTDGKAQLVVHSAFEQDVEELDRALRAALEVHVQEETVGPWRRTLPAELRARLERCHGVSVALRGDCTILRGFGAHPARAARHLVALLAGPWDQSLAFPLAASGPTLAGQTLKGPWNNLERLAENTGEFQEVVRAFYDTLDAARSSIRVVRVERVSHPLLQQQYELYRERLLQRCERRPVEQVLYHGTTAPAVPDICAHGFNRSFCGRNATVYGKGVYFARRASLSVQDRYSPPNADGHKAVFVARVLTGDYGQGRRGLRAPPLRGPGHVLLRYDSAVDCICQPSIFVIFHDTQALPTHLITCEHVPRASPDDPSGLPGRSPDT
KCNH2: Voltage-gated inwardly rectifying potassium channel KCNH2 (KCNH2, Homo sapiens, UniProt Q12809)
Chain of UniProt Q12809 (whole entry, looked up): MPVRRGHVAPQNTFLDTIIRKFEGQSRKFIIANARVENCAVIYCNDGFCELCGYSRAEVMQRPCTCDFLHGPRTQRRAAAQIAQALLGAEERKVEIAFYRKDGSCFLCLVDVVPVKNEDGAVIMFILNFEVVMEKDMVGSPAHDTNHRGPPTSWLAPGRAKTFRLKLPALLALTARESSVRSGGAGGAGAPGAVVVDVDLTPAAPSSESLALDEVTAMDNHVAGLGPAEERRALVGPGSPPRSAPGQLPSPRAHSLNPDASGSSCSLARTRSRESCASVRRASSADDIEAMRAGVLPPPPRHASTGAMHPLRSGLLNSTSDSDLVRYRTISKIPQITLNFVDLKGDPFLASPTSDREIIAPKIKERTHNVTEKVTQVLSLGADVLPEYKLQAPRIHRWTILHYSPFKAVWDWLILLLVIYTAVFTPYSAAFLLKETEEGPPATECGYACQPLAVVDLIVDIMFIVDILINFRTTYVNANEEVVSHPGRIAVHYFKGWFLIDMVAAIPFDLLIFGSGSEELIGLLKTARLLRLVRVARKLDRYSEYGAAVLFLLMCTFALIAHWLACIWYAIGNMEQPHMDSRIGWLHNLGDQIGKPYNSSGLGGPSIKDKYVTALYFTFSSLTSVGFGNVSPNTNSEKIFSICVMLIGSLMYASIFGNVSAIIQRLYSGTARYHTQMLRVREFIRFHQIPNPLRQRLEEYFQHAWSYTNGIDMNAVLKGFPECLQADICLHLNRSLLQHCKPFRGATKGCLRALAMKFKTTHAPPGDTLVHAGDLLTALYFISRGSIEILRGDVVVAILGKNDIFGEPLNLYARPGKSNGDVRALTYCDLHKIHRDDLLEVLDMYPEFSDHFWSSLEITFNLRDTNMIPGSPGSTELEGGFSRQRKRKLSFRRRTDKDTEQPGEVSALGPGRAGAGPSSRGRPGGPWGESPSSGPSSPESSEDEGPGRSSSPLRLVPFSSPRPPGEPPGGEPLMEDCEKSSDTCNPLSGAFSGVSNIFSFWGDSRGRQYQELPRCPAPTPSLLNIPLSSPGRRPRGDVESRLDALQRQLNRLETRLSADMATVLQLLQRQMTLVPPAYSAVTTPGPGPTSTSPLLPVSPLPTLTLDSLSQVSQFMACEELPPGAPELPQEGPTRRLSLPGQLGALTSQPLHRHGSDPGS

`O=C(NO)c1cncc(OS(=O)(=O)Oc2ccc3ccccc3c2)c1` has an IC50 of 1.42 µM (HDAC1; enzyme activity, inhibitor, fluorescence).
`COc1ccc(C[C@H](NC(=O)[C@H](C)NC(=O)CN2CCOCC2)C(=O)N[C@@H](CC2CCC(F)(F)CC2)C(=O)[C@@]2(C)CO2)cc1` gave an IC50 of 0.122 µM (PSMB8; enzyme activity, inhibitor; lysate).
For `C=CC(=O)N1CCC(COCC(=O)N2CCN(c3nc(-c4cnc(N)nc4C(F)F)nc(N4CCOC[C@@H]4C)n3)CC2)CC1`, the remaining binding was 96% (HIPK1; binding, competition with immobilised ligand; 1 µM).
`Cc1[nH]c(C)c(S(=O)(=O)Nc2ccc(C(F)(F)F)c(Br)c2)c1C(=O)N1CCCC1` gave an IC50 of 4.9 µM (DRD3; β-arrestin recruitment, antagonist).
The IC50 of `O=C(NO)c1cccc(OS(=O)(=O)Oc2ccc(-c3cccc(C(F)(F)F)c3)cc2)c1` is reported as 1.58 µM (HDAC8; enzyme activity, inhibitor, fluorescence).
With `NC(=O)c1ccc(C(=O)NOCc2ccc(Cl)cc2)cc1` the IC50 was 8.01 µM (SIRT6; enzyme activity, inhibitor, fluorescence).
`CC(=NNC(=O)c1ccccc1)c1ccc(Nc2nnc(-c3ccc(Cl)cc3)c3ccccc23)cc1` has a viability of 99.4% (MCF7; cell growth or viability, MTT; 0.312 µM, 24 h).
The IC50 of `O=C(NO)c1cc(F)cc(OS(=O)(=O)Oc2ccc(C(F)(F)F)cc2)c1` is reported as 3.13 µM (HDAC8; enzyme activity, inhibitor, fluorescence).
With `CN(C)C/C=C/C(=O)Nc1cc2c(Nc3ccc(F)c(Cl)c3)ncnc2cc1O[C@H]1CCOC1` the IC50 was greater than 100 µM (CES2; enzyme activity, inhibitor, fluorescence; with preincubation).
`COc1cc2ncnc(Nc3ccc4c(c3)/C(=C/c3ccccc3)C(=O)N4)c2cc1OC` has an IC50 of 0.0992 µM (PIK3CB; enzyme activity, inhibitor, ADP detection).
With `COc1cc2c(cc1OC)C(=O)/C(=C/c1ccc(Cl)cc1C)C2` the IC50 was greater than 100 µM (CES2; enzyme activity, inhibitor, fluorescence; with preincubation).
For `CCCCC(=O)Nc1ccc(-c2ccc3ncn(CCC)c(=O)c3c2)cn1`, the remaining binding was 88% (Fibroblast growth factor receptor 3 (FGFR3, Homo sapiens, UniProt P22607, G697C); binding, competition with immobilised ligand; 0.5 µM).
With `COc1cc2c(cc1OC)C(=O)/C(=C/c1ccco1)C2` the IC50 was 3.23 µM (CES2; enzyme activity, inhibitor, fluorescence; with preincubation).
With `Cc1ccc(Cn2cc(-c3ccccc3C(N)=O)nn2)cc1` the IC50 was greater than 10 µM (PARP2; enzyme activity, inhibitor).
`CCNC(=O)c1c(C)[nH]c(C)c1S(=O)(=O)Nc1ccc(C(F)(F)F)c(Cl)c1` gave an IC50 of 9.2 µM (DRD3; β-arrestin recruitment, antagonist).
`O=C(NO)c1cc(F)cc(OS(=O)(=O)Oc2ccccc2)c1` gave an IC50 of 1.07 µM (HDAC8; enzyme activity, inhibitor, fluorescence).
For `Cc1ccc(NS(=O)(=O)c2c(C)[nH]c(C)c2C(=O)N2CCCC2C)cc1Cl` (stereo not drawn), the IC50 was 6.1 µM (DRD3; G protein activation, antagonist, BRET).
`CCOC(=O)c1ccccc1-c1c2cc(Br)c(=O)c(Br)c-2oc2c(Br)c(O)c(Br)cc12` has an IC50 of 1.5 µM (ALOX15; enzyme activity, inhibitor, absorbance).
`O=c1[nH]c2c(nnn2Cc2ccccc2C(F)(F)F)c2ccc(F)cc12` gave an IC50 of greater than 10 µM (PARP10; enzyme activity, inhibitor).
`Cc1[nH]c(C)c(S(=O)(=O)Nc2ccc(C(=O)C(F)(F)F)c(Cl)c2)c1C(=O)N1CCC(F)(F)C1` has an IC50 of 11.5 µM (DRD3; β-arrestin recruitment, antagonist).
`CNc1ncc2c(/C=C/C(=O)N3CCC(OC)CC3)nn(Cc3cccc(C(F)(F)F)c3)c2n1` gave a remaining activity of 90% (Serine/threonine-protein kinase haspin (HASPIN, Homo sapiens, UniProt Q8TF76); enzyme activity, inhibitor, radiometric; 1 µM).
The IC50 of `CNC(=O)c1ccccc1Sc1ccc2c(/C=C/c3ccccn3)n[nH]c2c1` is reported as 11.5 µM (CES2; enzyme activity, inhibitor, fluorescence; with preincubation).
For `O=C(NO)c1cncc(OS(=O)(=O)Oc2ccc(C(F)(F)F)cc2)c1`, the IC50 was 2.92 µM (HDAC1; enzyme activity, inhibitor, fluorescence).
`COC(=O)N[C@H](C(=O)N[C@@H](Cc1ccccc1)[C@@H](O)CN(Cc1ccc(-c2ccccn2)cc1)NC(=O)[C@@H](NC(=O)OC)C(C)(C)C)C(C)(C)C` gave an IC50 of greater than 100 µM (CES2; enzyme activity, inhibitor, fluorescence; with preincubation).
The IC50 of `Cc1[nH]cc(C(=O)N2CCC(F)(F)C2)c1S(=O)(=O)Nc1ccc(C(F)(F)F)c(Cl)c1` is reported as 3 µM (DRD3; G protein activation, antagonist, BRET).
With `COc1cc2c(cc1OC)C(=O)/C(=C/C1CCC1)C2` the IC50 was 15.5 µM (CES2; enzyme activity, inhibitor, fluorescence; with preincubation).
`CCOC(=O)c1ccccc1-c1c2ccc(=O)cc-2oc2cc(OCCOCCn3nnnc3C(NCc3ccc(Cl)cc3Cl)C3CC3)ccc12` (stereo not drawn) has an IC50 of greater than 100 µM (ALOX15; enzyme activity, inhibitor, absorbance).
The IC50 of `Cc1cc(C)c(OS(=O)(=O)Oc2cccc(C(=O)NO)c2)c(C)c1` is reported as 0.244 µM (HDAC8; enzyme activity, inhibitor, fluorescence).
`COc1ccc(C[C@H](NC(=O)[C@H](C)NC(=O)CN2CCOCC2)C(=O)N[C@@H](CC2CC3CCC2C3)C(=O)[C@@]2(C)CO2)cc1` (mixture of isomers) gave an IC50 of 9.68 µM (PSMB8; enzyme activity, inhibitor; lysate).
The IC50 of `O=C(C1CCCCC1)N1CC(=O)N2CCc3ccccc3C2C1` (stereo not drawn) is reported as greater than 100 µM (CES2; enzyme activity, inhibitor, fluorescence; with preincubation).
`COc1cccc(OC)c1-c1cc(C(=O)NC2(C(=O)O)C3CC4CC(C3)CC2C4)nn1-c1ccc(C(=O)N(C)CCCN(C)CCCN(C)C(=O)CN2CCN(CC(=O)[O-])CCN(CC(=O)[O-])CCN(CC(=O)[O-])CC2)cc1C(C)C.[177Lu+3]` (stereo not drawn) has a tracer uptake of 14 %ID/g (HT-29 tumour model; host not given, blood; 4 h, tumour-bearing).
The IC50 of `Cc1ccc(Cn2nnc3c4ccc(C(F)(F)F)cc4c(=O)[nH]c32)cc1` is reported as greater than 10 µM (PARP2; enzyme activity, inhibitor).
The IC50 of `COc1nc(N)nc(N)c1OCCCOc1ccccc1CCC(=O)O` is reported as greater than 5 µM (Dihydrofolate reductase (Mycobacterium avium, UniProt O30463); enzyme activity, inhibitor).
The IC50 of `Cc1[nH]c(C)c(S(=O)(=O)Nc2ccc(C(F)(F)F)c(Cl)c2)c1C(=O)N1CCC(=O)C1` is reported as 4.3 µM (DRD3; β-arrestin recruitment, antagonist).
`CCCCCOc1ccc2ccc(C(=O)N[C@@H](CCCNC(=N)CCl)C(=O)NCc3ccccc3)cc2c1` gave an IC50 of ~0.9 µM and 0.914 µM (Protein-arginine deiminase type-4 (PADI4, Homo sapiens, UniProt Q9UM07); enzyme activity, inhibitor, fluorescence; with preincubation).
With `COc1ccn2c(Nc3ccccc3F)c(-c3ccncn3)nc2c1` the IC50 was less than 0.0001 µM (KCNH2; ion current, inhibitor).
The IC50 of `Cc1nc(Nc2ccc3c(c2)/C(=C/c2ccccc2C)C(=O)N3C)c2ccccc2n1` is reported as 0.146 µM (PIK3CB; enzyme activity, inhibitor, ADP detection).
For `c1ccc(-c2occc2-c2ccnc3ccccc23)nc1`, the IC50 was > 4 µM and 6.4 µM (Serine/threonine protein kinase YCK2 (YCK2, Candida albicans, UniProt A0A1D8PKB4); enzyme activity, inhibitor, ADP detection).
`O=C(COC(=O)c1ccccc1Nc1cccc(C(F)(F)F)c1)NNS(=O)(=O)c1ccccc1` gave an IC50 of 15 to 26 µM and 25.3 µM (Prostaglandin G/H synthase 1 (PTGS1, Ovis aries, UniProt P05979); enzyme activity, inhibitor).
`Cc1cc([C@@H](C)Nc2ccccc2C(=O)O)c2nc(N3CCC(F)(F)CC3)c(C#N)c(=O)n2c1` gave a remaining binding of 97% (Dual specificity mitogen-activated protein kinase kinase 2 (MAP2K2, Homo sapiens, UniProt P36507); binding, competition with immobilised ligand; 10 µM).
With `O=C1C(=Nc2ccccc2I)c2ccccc2N1Cc1cccc(Cl)c1` the IC50 was 0.266 µM (PIK3CB; enzyme activity, inhibitor, ADP detection).
With `COc1ccc(Cn2nnc3c4ccc(F)cc4c(=O)[nH]c32)cc1` the IC50 was greater than 10 µM (PARP10; enzyme activity, inhibitor).
`Cn1nc2c(=O)n(C3CC3)cnc2c1[C@](O)(c1cnc(C(F)(F)F)c(Cl)c1)C(F)(F)F` gave an IC50 of ~50 µM and 48.9 µM (KCNH2; ion current, inhibitor, patch clamp; CHO).
With `Cc1cc(C(C)(C)C)ccc1OS(=O)(=O)Oc1cccc(C(=O)NO)c1` the IC50 was 2.26 µM (HDAC8; enzyme activity, inhibitor, fluorescence).
The IC50 of `CC(C)(C)c1ccc(Cn2nnc3c4ccc(F)cc4c(=O)[nH]c32)cc1` is reported as greater than 10 µM (PARP10; enzyme activity, inhibitor).
For `NC(=O)c1ccc(C(=O)NOCc2cccc(Cl)c2)cc1`, the IC50 was 5.87 µM (SIRT6; enzyme activity, inhibitor, fluorescence).
With `Cc1cccc(N=C2C(=O)N(Cc3ccccc3)c3ccccc32)c1` the IC50 was 0.0146 µM (PIK3CB; enzyme activity, inhibitor, ADP detection).
`CC(=NNC(=O)c1ccccc1Cl)c1ccc(Nc2nnc(-c3ccc(Cl)cc3)c3ccccc23)cc1` has a viability of 23% (MCF7; cell growth or viability, MTT; 2.5 µM, 24 h).
For `COc1cc(-c2cncc3c2CN(C)Cc2cc(N4CCNCC4)ccc2-3)cc(OC)c1OC`, the remaining activity was 107% (HIPK1; enzyme activity, inhibitor; 1 µM).
With `CC(C)c1cccc(C(C)C)c1N=C1C(=O)Nc2ccccc21` the IC50 was 0.0535 µM (PIK3CB; enzyme activity, inhibitor, ADP detection).
For `CSc1ccc(NS(=O)(=O)c2c(C)[nH]c(C)c2C(=O)N2CCC(F)(F)C2)cc1Cl`, the IC50 was 7.8 µM (DRD3; β-arrestin recruitment, antagonist).
The IC50 of `Cc1ccc(-c2ccc3c(c2)C=C(C(=O)Nc2ccc(C[N+](C)(C)C4CCOCC4)cc2)CCC3)cc1` is reported as 0.00479 µM (C-C chemokine receptor type 5 (CCR5, Homo sapiens, UniProt P51681); β-arrestin recruitment, antagonist).
With `O=C1C(=Nc2ccc(Cl)cc2)c2ccccc2N1Cc1ccc(Br)cc1` the IC50 was 0.0672 µM (PIK3CB; enzyme activity, inhibitor, ADP detection).
The inhibition of `Cc1noc(NS(=O)(=O)c2ccc(N=NN(C)O)cc2)c1C` is reported as 95.6% (ABTS scavenging; 240 µg/mL).
With `O=C1C(=Nc2ccc(Cl)cc2Br)c2ccccc2N1Cc1ccc([N+](=O)[O-])cc1` the IC50 was 0.0363 µM (PIK3CB; enzyme activity, inhibitor, ADP detection).
For `O=c1[nH]c2c(nnn2-c2ccc(Br)cc2)c2ccccc12`, the IC50 was greater than 10 µM (PARP2; enzyme activity, inhibitor).
`C1=C/COCc2cc(ccc2OCCN2CCCC2)Nc2nccc(n2)-c2cccc(c2)COC/1` gave a remaining binding of 4.5% (Mast/stem cell growth factor receptor Kit (KIT, Homo sapiens, UniProt P10721, L576P); binding; 0.1 µM).
The IC50 of `C[C@H]1c2cccc(O)c2C(=O)C2=C(O)[C@]3(O)C(=O)C(C(N)=O)=C(O)[C@@H](N(C)C)[C@@H]3[C@@H](O)[C@@H]21` is reported as greater than 100 µM (CES2; enzyme activity, inhibitor, fluorescence; with preincubation).
The IC50 of `O=C(/C=C/c1cccc(OS(=O)(=O)Oc2ccccc2)c1)NO` is reported as 2.74 µM (HDAC8; enzyme activity, inhibitor, fluorescence).
For `CCc1ccc(NS(=O)(=O)c2c(C)[nH]c(C)c2C(=O)N2CCCC2)cc1Cl`, the IC50 was 11 µM (DRD3; β-arrestin recruitment, antagonist).
